Experimental data of several laboratories.
Each numbered part is a random draw from the data of one study; scales do not carry over between parts. Several values in a cell are separate wells, animals, samples, runs or records.

Sample 1
Target: Histamine H2 receptor (HRH2, Homo sapiens, UniProt P25021)
Chain of UniProt P25021 (whole entry, looked up): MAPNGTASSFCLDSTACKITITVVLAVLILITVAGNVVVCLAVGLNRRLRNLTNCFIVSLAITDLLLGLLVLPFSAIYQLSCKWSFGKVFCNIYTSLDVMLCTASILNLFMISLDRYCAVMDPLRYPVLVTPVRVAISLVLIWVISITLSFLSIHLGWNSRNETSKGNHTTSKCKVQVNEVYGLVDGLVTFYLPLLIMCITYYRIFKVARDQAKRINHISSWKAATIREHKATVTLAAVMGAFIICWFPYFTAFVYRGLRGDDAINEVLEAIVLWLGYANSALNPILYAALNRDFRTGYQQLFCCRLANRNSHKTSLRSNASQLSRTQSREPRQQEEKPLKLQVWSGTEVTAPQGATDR
Read-out: binding
Method: radioligand binding
Tested at: 10 µM
For COc1cc(-c2cn(C3CCc4ccccc4N(CC(F)(F)F)C3=O)nn2)ccc1-n1ccc(C)n1 (stereo not drawn), the inhibition was 4.13%.
For CN([C@@H]1CCc2c(CC(=O)O)c3cc(S(C)(=O)=O)ccc3n2C1)S(=O)(=O)c1ccc(F)cc1, the inhibition was -10.7%.
COc1cccc(CNC(=O)c2nc3scc(COCc4ccc(C(=O)O)cc4)c3c(=O)[nH]2)c1 has an inhibition of 28.4%.
Cc1c(N2CCCC2)nc2ccc(Br)cc2c1C(=O)NC[C@H](CCC(=O)O)c1ccccc1Cl has an inhibition of 23.3%.

Sample 2
Target: DNA polymerase theta, ATPase domain (POLQ, Homo sapiens, UniProt O75417)
Chain of UniProt O75417 (whole entry, unmodified, looked up): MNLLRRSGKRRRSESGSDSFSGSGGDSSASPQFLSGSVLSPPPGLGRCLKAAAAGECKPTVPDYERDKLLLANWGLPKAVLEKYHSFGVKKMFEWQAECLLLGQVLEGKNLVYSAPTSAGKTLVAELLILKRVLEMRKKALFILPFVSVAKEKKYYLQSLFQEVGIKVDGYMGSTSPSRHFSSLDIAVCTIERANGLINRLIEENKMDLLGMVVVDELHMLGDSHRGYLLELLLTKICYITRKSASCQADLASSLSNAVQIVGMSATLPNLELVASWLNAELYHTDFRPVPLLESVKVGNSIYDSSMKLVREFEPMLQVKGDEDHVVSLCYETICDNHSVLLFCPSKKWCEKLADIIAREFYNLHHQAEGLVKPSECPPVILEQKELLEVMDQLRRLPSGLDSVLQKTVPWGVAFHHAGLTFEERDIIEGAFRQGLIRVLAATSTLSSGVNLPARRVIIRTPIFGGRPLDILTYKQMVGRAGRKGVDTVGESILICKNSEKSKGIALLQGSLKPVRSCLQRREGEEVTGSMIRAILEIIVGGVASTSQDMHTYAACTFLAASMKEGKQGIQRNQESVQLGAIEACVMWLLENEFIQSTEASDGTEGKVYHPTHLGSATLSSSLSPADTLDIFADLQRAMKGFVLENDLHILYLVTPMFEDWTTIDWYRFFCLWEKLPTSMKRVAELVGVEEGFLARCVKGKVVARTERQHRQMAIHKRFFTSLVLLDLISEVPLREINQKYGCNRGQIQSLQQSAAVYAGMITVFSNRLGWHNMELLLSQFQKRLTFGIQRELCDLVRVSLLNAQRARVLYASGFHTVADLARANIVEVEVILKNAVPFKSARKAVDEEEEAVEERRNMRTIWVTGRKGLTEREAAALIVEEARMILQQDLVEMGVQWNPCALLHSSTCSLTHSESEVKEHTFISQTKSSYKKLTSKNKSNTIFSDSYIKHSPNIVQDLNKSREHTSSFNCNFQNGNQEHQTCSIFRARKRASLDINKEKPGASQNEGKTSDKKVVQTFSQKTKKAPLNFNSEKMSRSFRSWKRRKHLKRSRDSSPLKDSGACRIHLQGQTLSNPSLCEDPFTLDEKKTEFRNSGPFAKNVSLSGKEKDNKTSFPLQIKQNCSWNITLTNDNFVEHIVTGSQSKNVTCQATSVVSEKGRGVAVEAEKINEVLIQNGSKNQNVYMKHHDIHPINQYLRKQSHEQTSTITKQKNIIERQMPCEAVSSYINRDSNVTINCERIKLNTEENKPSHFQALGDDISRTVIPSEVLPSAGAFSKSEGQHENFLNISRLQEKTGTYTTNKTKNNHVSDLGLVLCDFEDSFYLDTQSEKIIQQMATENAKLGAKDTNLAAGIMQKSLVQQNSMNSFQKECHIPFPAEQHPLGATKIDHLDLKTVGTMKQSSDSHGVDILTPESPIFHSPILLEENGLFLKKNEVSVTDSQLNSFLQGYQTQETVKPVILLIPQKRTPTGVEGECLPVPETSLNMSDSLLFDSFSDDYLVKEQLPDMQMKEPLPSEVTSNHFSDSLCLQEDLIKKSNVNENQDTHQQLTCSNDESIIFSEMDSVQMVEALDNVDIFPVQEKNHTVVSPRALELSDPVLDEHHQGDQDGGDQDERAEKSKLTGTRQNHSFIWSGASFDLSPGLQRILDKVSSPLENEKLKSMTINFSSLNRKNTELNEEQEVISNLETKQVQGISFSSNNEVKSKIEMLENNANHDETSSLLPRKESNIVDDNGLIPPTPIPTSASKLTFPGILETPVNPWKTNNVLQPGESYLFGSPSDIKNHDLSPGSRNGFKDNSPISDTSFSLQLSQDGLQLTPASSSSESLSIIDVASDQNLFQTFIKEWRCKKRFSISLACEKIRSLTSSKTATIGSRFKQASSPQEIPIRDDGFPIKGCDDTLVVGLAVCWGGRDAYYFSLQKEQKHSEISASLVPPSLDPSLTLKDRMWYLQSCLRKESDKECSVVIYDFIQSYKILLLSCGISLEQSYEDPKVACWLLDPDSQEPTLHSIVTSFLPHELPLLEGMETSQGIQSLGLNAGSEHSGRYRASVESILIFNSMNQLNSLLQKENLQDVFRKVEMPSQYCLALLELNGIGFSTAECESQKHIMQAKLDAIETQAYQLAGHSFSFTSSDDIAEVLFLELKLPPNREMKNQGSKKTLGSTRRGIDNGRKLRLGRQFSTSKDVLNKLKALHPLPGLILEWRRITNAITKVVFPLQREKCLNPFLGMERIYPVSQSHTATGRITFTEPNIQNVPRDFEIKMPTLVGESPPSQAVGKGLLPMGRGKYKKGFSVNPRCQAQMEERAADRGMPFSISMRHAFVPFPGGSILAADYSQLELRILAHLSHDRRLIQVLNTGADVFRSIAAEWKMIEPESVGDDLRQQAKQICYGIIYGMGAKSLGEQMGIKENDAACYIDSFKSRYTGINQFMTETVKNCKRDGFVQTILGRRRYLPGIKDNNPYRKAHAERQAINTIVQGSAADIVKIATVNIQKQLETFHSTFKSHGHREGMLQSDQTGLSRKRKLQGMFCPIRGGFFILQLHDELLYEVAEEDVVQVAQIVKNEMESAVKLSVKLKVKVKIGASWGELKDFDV
Read-out: enzyme activity
Mode: inhibitor
Tested at: 77 µM
Reference: untreated
CCN(CC)CCCCNc1ncc2cc(-c3c(Cl)cccc3Cl)c(NC(=O)NC(C)(C)C)nc2n1 gave a remaining activity of 95.3%.
With NCCCNCCCCNCCCN the remaining activity was 101%.
The remaining activity of COCCOc1ccc2c(c1)ncn2-c1ccc2cccc(N3CCC(N)CC3)c2n1 is reported as 91.9%.
With C[C@]12CCC(=O)C=C1CC[C@@H]1[C@@H]2C(=O)C[C@@]2(C)[C@H]1CC[C@]2(O)C(=O)CO the remaining activity was 97.1% and 99.8%.
N[C@H](C(=O)O)[C@H]1C[C@@H]1C(=O)O gave a remaining activity of 100%.

Sample 3
Target: Serine/threonine-protein kinase SIK2 (SIK2, Homo sapiens, UniProt Q9H0K1)
Chain of UniProt Q9H0K1 (whole entry, looked up): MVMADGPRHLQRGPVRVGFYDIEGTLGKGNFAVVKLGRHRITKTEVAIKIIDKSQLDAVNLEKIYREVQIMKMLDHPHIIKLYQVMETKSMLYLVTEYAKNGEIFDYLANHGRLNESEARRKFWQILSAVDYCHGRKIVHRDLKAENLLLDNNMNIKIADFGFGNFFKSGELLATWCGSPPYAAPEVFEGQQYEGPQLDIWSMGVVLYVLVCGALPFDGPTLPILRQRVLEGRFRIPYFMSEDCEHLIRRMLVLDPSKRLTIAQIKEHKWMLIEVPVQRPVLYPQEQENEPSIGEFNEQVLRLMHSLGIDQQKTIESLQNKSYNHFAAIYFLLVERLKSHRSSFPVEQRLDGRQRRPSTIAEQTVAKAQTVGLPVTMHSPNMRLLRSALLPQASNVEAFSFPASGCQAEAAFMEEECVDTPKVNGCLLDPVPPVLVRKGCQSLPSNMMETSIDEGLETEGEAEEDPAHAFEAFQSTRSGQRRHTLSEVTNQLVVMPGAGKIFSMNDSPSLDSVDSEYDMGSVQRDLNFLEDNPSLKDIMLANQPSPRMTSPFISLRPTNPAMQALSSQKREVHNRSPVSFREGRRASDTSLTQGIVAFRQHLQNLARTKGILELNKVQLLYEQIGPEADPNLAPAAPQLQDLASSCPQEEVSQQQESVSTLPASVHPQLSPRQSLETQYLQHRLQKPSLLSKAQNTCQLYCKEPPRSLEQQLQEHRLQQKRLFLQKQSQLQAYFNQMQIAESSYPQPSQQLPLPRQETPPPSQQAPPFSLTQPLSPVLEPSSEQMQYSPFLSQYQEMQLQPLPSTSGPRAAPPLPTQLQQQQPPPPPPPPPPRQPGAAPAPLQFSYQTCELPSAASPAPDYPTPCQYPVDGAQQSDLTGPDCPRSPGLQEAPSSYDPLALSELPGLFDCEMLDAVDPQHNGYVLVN
Read-out: enzyme activity
Mode: inhibitor
Tested at: 0.5 µM
Reference: control
The remaining activity of CN(C)c1ccc(C=C2C(=O)Nc3ccccc32)cc1 is reported as 101%.
NCCNc1ncc(C(N)=O)c(Nc2cccc(C(F)(F)F)c2)n1 gave a remaining activity of 80.1%.
With O=C1NC(=O)C(c2cn(CCCO)c3ncccc23)=C1c1cnccn1 the remaining activity was 101%.
With CC(C)[C@H](CO)Nc1nc(Nc2cc(N)cc(Cl)c2)c2ncn(C(C)C)c2n1 the remaining activity was 104%.
The remaining activity of O=C(Nc1cccc(Nc2cc(Nc3cccc(C(F)(F)F)c3)ncn2)c1)C1CC1 is reported as 89.4%.
With COc1cc2nccc(Oc3ccc(NC(=S)NC(=O)c4ccccc4C)cc3)c2cc1OC the remaining activity was 97.8%.
The remaining activity of Nc1ncnc2n[nH]c(Nc3ccc(F)cc3)c12 is reported as 78.7%.
The remaining activity of Nc1[nH]nc2nc3ccccc3nc12 is reported as 102%.
With COc1cc2ncnc(Nc3ccc(Oc4ccccc4)cc3)c2cc1OC the remaining activity was 97.7%.
Cc1nc(-c2ccccc2)c(-c2ccncc2)o1 gave a remaining activity of 86.2%.
With O=C(CCCc1ccc(-c2ccccc2F)cc1)Nc1ccc(O)cc1 the remaining activity was 102%.
The remaining activity of OCC(O)CCON=C1C(c2c(O)[nH]c3ccccc23)=Nc2ccccc21 (stereo not drawn) is reported as 75.1%.
The remaining activity of Nc1ccc2ncnc(NCCc3ccc(Oc4ccccc4)cc3)c2c1 is reported as 97.4%.
Oc1ccc(-c2nc(-c3ccncc3)c(-c3ccc(F)cc3)[nH]2)cc1 gave a remaining activity of 83.4%.
The remaining activity of CO[C@H]1C[C@@H]2CC[C@@H](C)[C@@](O)(O2)C(=O)C(=O)N2CCCC[C@H]2C(=O)O[C@H]([C@H](C)C[C@@H]2CC[C@@H](O)[C@H](OC)C2)CC(=O)[C@H](C)/C=C(\C)[C@@H](O)[C@@H](OC)C(=O)[C@H](C)C[C@H](C)/C=C/C=C/C=C/1C is reported as 94.3%.
For COc1cc2ncnc(Nc3ccc(F)c(Cl)c3)c2cc1OCCCN1CCOCC1, the remaining activity was 49.3%.

Sample 4
SMILES: COc1cc(C(=O)N2CCC(N3CCN(C)CC3)CC2)ccc1Nc1ncc2c(n1)N(C)c1ccccc1C(=O)N2C
For CaMKK1 (mouse); probe labelling, KiNativ, item: Lys1 site peptide; brain tissue lysate (mouse); 0.1 µM, with: ADP acyl-phosphate probe: inhibition read 8.7%.
It gave -2.1% for inhibition (MAP3K2 and MAP3K3 (mouse); probe labelling, KiNativ, item: DIkGANILR peptide, LYS2 site; brain tissue lysate (mouse); 1 µM, with: ADP acyl-phosphate probe).
For PKCa (mouse); probe labelling, KiNativ, item: LYS1 site peptide; brain tissue lysate (mouse); 1 µM, with: ATP acyl-phosphate probe: inhibition read 4.8%.
The inhibition was -14.3% (mouse CaMK1δ; probe labelling, KiNativ ATP probe; mouse brain lysate; 1 µM, LYS1 site LFAVkCIPK).
For mouse CaMK2α/β/δ/γ; probe labelling, KiNativ ADP probe; mouse brain lysate; 1 µM, LYS2 site DLkPENLLLASK: inhibition read -2.1%.
It gave -1.5% for inhibition (inhibitor, KiNativ profiling, item: peptide TSTQEYAAkIINTK; human PBMC lysate; concentration not given, Lys1 site, with: ADP acyl-phosphate probe).
The inhibition was -5.2% (NDR1 (mouse); probe labelling, KiNativ, item: DTGHVYAMkILR peptide, LYS1 site; brain tissue lysate (mouse); 1 µM, with: ADP acyl-phosphate probe).
It gave 2.1% for inhibition (LCK human; KiNativ profiling; human PBMC; concentration not given, activation loop site, with: ATP acyl phosphate probe).
